Experimental data gathered from unrelated publications.
Lines come from different studies, so protocols differ. “And” joins repeats or separate records; there may be more than shown. ± gives the spread as reported.

| SMILES | assay | system | conditions | scale | endpoint | result |
| --- | --- | --- | --- | --- | --- | --- |
| Cc1cc(-c2nc(C(=O)Nc3cc4oc(N5CCOCC5)nc4nc3N3CC[C@@H](O)C3)co2)ccn1 | immunohistochemistry, measured: phospho-p38 | mouse, intracranial B16-F10 tumour | dose not given | relative to: total cells | pP38 positive cells | 11.4% |
| OC(CCN1CCCCC1)(c1ccccc1)C1CC2C=CC1C2 (stereo not drawn) | resting-state EEG | healthy elderly humans | oral, 2 mg, eyes closed, LS mean | relative to: baseline | change in EEG Beta1-power Pz-O1 | -9.4% |
| CSCCNc1nc(SCCC(F)(F)F)nc2c1ncn2[C@@H]1O[C@H](COP(=O)(O)OP(=O)(O)C(Cl)(Cl)P(=O)(O)O)[C@@H](O)[C@H]1O | platelet aggregation, light transmission aggregometry | human patients, platelet-rich plasma | dose not given, 1 h, inhibition threshold 90%, with: TRAP 15 µM |  | patients with inhibition above threshold | 0% |
| c1ccc(-c2n[nH]cc2-c2ccnc3ccccc23)nc1 | kinase binding, competitor, MIB/MS competition, measured: RIM11 | Candida albicans cell lysate | 1 µM | relative to: DMSO | log2 fold change | 1.39 |
| CN[C@@H]1COc2c(S(=O)(=O)NC(=O)Nc3c4c(cc5c3CCC5)CCC4)cnn2C1 | measured: IL-1β | human participants, whole blood ex vivo | 150 mg single dose, 4 h, with: LPS/ATP | relative to: baseline | inhibition | 99.4% |
| CC#CC(=O)N[C@H]1CCCN(c2c(F)cc(C(N)=O)c3[nH]c(C)c(C)c23)C1 |  | healthy volunteers, single ascending dose, serum | 10 mg, day 10 |  | change from baseline in serum IgM | -16.7 mg/L |
| COc1ncc(-c2nc3c(n2C(C)C)[C@H](c2ccc(Cl)cc2)N(c2cc(Cl)cn(C)c2=O)C3=O)c(OC)n1 | antileukemic activity, measured: treatment failure, indeterminate cause | human, acute myeloid leukaemia | 350 to 400 mg, high-dose, other doses |  | best overall response | 8.3% |
| C[C@@H](Nc1cc(F)cc(F)c1)c1cc(C(=O)N(C)C)cc2c(=O)cc(N3CCOCC3)oc12 | immunohistochemistry | human, tumour biopsy | 120 mg twice daily continuous, day 13, 312 h post-dose | relative to: baseline | change in pPRAS40 level | -13.4% |
| CCOCc1nc(O)c(-c2nnc(Cc3ccc(Cl)cn3)o2)c(O)c1-c1c(OC)cccc1OC |  | instrumented anaesthetised rat | intravenous infusion, 100 µg/kg/min for 15 min, 15 min | relative to: baseline | dP/dtmax change | 14.5 ± 1% |
| CN(C)C(=O)c1cc2cnc(Nc3ccc(N4CCNCC4)cn3)nc2n1C1CCCC1 | RNA-seq GSEA, measured: HALLMARK_APOPTOSIS | MB002 tumour | concentration not given, in vivo | relative to: vehicle, direction not given | GSEA enrichment score | -0.262 |
| C[C@@H](NC(=O)N1C(=O)[C@H](Cc2ccnc(N)c2)[C@H]1C(=O)O)C1CCCCC1 |  | human | iv infusion, 0.6 mg/kg/h, 24 h, unit not given | relative to: baseline | ACT Emax | 1.05 |
| Cc1coc([C@H]2C[C@H]3[C@@H](CF)SC(N)=N[C@@]3(c3ccc(F)cc3F)CO2)n1 | measured: Aβx-42 | Mus musculus wild-type, brain | subcutaneous, 80 mg/kg, 1 h |  | Aβ42 level | 0.59 ng/g |
| CN1CC[C@@H](c2c(O)cc(O)c3c(=O)cc(-c4ccc(C(F)(F)F)cc4Cl)oc23)[C@@H]1CO |  | human | dose not given, 110 days therapy |  | change in SPD | -28% |
| C=CCn1c(=O)c2cnc(Nc3ccc(N4CCN(C)CC4)cc3)nc2n1-c1ccc2c(n1)[C@@](O)(CC)CC2 |  | Calu-3, NOD/SCID mice, xenograft | oral, 80 mg/kg once daily, day 28 | relative to: vehicle | tumour growth inhibition | 75.7% |
| O=C(O)CNC(=O)Cc1ccccc1 |  | ventricular cardiomyocytes, C57BL/6 mouse | dose not given, 0.824 s |  | sarcomere length | 1.65 µm |
| CC1(C)CCC(c2ccc(Cl)cc2)=C(CN2CCN(c3ccc(C(=O)NS(=O)(=O)c4ccc(N[C@H](CCN5CCOCC5)CSc5ccccc5)c(S(=O)(=O)C(F)(F)F)c4)cc3)CC2)C1 | cell killing | canine lymph node CD21+ B cells, dog 30 | 24 h |  | EC50 | 480 nM |
| COc1nc(NCc2cn(-c3ccc(C(=O)Nc4ccc(F)cc4)cc3)nn2)nc(OC)n1 | MTT | normal colonocytes, rat | 72 h |  | maximum non-toxic concentration | 42 ± 0.97 nM |
| Cc1noc(C)c1-c1cc(C(O)(c2ccccn2)c2ccccn2)c2nc(C3CC3)[nH]c2c1 | measured: HEXIM1 expression | human, peripheral blood | 9 mg, day 1, 1604 study |  | maximum induction | 54% |
| COc1nc(NCc2cn(-c3ccc(C(=O)Nc4ccccc4)cc3)nn2)nc(OC)n1 | MTT | normal colonocytes, rat | 72 h |  | maximum non-toxic concentration | 40.9 ± 1.48 nM |
| CC(C)[C@H](C(=O)Nc1ccc(C(=O)NO)cc1)c1ccccc1 | volumetric MRI | human, left posterior fossa tumour | dose not given, day 373 |  | tumour volume | 3.3 cm3 |
| Cc1cc([C@H]2C[C@H]3[C@@H](CF)SC(N)=N[C@@]3(c3ccc(F)cc3F)CO2)on1 | measured: Aβx-42 | Mus musculus wild-type, brain | subcutaneous, 100 mg/kg, 9 h |  | Aβ42 level | 0.51 ng/g |
| CC(C)(C)c1cc(C(C)(C)C)c(NC(=O)c2c[nH]c3ccccc3c2=O)cc1O |  | rat colon ex vivo | 1 nM to 10 µM |  | contraction AUC | no effect |
| Cn1cc(Nc2nc(N)nc(-c3cccc(-n4ccc5cc(C6CC6)cc(F)c5c4=O)c3CO)n2)cn1 | CD63 upregulation, anti-IgE-induced | human, multiple ascending dose, whole blood basophils ex vivo | 150 mg twice daily, day 14, 1 h |  | inhibition | 70.9% |

| SMILES | assay | system | conditions | scale | endpoint | result |
| --- | --- | --- | --- | --- | --- | --- |
| COc1nnc2ccc(N3CCC(c4ccc(OCCN5CCN(C)C(=O)[C@H]5C)cc4)CC3)nn12 |  | human patients | 10 mg once daily, 2-fold above baseline |  | time above HEXIM1 threshold | 1.73 h |
| COc1cc2cc(-c3ccc(CC(=O)Nc4cc(C(C)(C)C(F)(F)F)no4)cn3)cnc2cc1OC | RECIST v1.1 | human RET-altered solid tumours | 13 100 mg tablets, phase I |  | disease control rate | 88% |
| CC(C)S(=O)(=O)c1ccc2nccc(Nc3ccc4scnc4c3)c2c1 | SYTOX Green IncuCyte imaging | 3T3SA, mouse | 10 µM, with: TNF plus zVAD |  | necroptosis inhibition | inhibited |
| N=C(N)NCCC[C@H](NC(=O)[C@H](CCCNC(=N)N)NC(=O)[C@H](CCCCN)NC(=O)[C@H](CCC(N)=O)NC(=O)[C@H](CCCCN)NC(=O)[C@H](Cc1ccc(O)cc1)NC(=O)[C@@H](N)CCCCN)C(=O)N[C@@H](CO)C(=O)N[C@@H](Cc1ccc(O)cc1)C(=O)N[C@@H](CCCCN)C(=O)O |  | dentin hypersensitivity patients | 5 µg/tooth single, day 22, higher-VAS tooth | relative to: baseline | cold water VAS change | -17.5 ± 19.2 mm |
| O=C(O[C@@H]1[C@@H](O)[C@H](Oc2cc(O)c3c(c2)O[C@H](c2ccccc2)CC3=O)O[C@@H]2COC(=O)c3cc(O)c(O)c(O)c3-c3c(cc(O)c(O)c3O)C(=O)O[C@@H]12)c1cc(O)c(O)c(O)c1 | laser-injury thrombosis model | mouse, cremaster arterioles | intravenous infusion, dose not given | relative to: control | platelet accumulation | 18 ± 6.2% |
| CC(C)NCC(O)c1ccc(O)c(O)c1 (stereo not drawn) |  | ventricular cardiomyocytes, C57BL/6 mouse | dose not given, 0.62 s |  | sarcomere length | 1.71 µm |
| N#Cc1ccn2c(-c3ccncc3)c(-c3ccc(F)cc3)nc2c1 | kinase binding, competitor, MIB/MS competition, measured: HST7 | Candida albicans cell lysate | 10 µM | relative to: DMSO | log2 fold change | -0.303 |
| Cc1cc(F)cc2c(CCC(=O)N[C@@H]3C(=O)NC[C@H]3O)c(-c3ccc(F)cc3)[nH]c12 |  | APOL1 G2 mice, IFNγ-induced | 30 mg/kg twice daily, day 14 |  | urine albumin/creatinine ratio | 1530 µg/mg and 103 µg/mg and 109 µg/mg and 261 µg/mg and 418 µg/mg and 91.9 µg/mg |
| N#Cc1ccc2c(CN3CCOCC3)cc(-c3ccc([C@H]4CCC(=O)N4)cc3)nc2c1 | no effect, measured: Tnf | BTBR ob/ob mice, female, diabetic wound model, wound tissue | dose not given, 21 days | relative to: vehicle | mRNA level | no effect |
| C[C@H]1O[C@@H](O[C@H]2CC[C@@]3(C)[C@@H](CC[C@]4(C)[C@@H]3C=C[C@]35OC[C@@]6(CCC(C)(C)C[C@H]63)[C@@H](O)C[C@]54C)[C@]2(C)CO)[C@H](O)[C@@H](O[C@@H]2O[C@H](CO)[C@@H](O)[C@H](O)[C@H]2O)[C@H]1O |  | chronic-plus-binge ethanol-fed mice | oral, 5 mg/kg/day, 7 d | relative to: body weight | liver index | 5.58% and 6.15% and 5% and 5.05% and 5.18% and 5.78% |
| O=C(COc1ccc(Cl)cc1)NC12CC(c3nnc([C@H]4C[C@@H](OC(F)(F)F)C4)o3)(C1)C2 | measured: ATF4 | PBMC ex vivo stimulated, human ALS patients | 200 mg, D21 predose | relative to: baseline | protein level change | -86.9% |
| FC(F)(F)Oc1cccc(-c2cnc3ccc(-c4ccncc4)nn23)c1 |  | MDA-MB-231 xenograft, NSG mouse | oral, 10 mg/kg daily, day 13 | higher = larger tumour | tumour size | 0.0983 a.u. and 0.211 a.u. and 0.137 a.u. and 0.0907 a.u. |
| CCN1CCN(Cc2ccc(Nc3ncc(F)c(-c4cc(F)c5nc6n(c5c4)[C@H](C)CCC6)n3)nc2)CC1 |  | human advanced solid tumours | 400 mg, phase Ia monotherapy RECIST 1.1 |  | disease control rate | 100% |
| CC(C)(O)c1ccccc1CC[C@@H](SCC1(CC(=O)O)CC1)c1cccc(/C=C/c2ccc3ccc(Cl)cc3n2)c1 | paw oedema | mouse | intraperitoneal, 10 mg/kg, 3 h, with: leukotriene |  | maximal inhibition | 77% |
| Cc1cc(C)c(CNC(=O)c2cc(Cl)c3c(c2C)O[C@@](C)([C@H]2CC[C@H](N(C)C)CC2)O3)c(=O)[nH]1 | modified 2009 ATLL criteria | human, relapsed/refractory adult T-cell leukaemia-lymphoma | dose not given |  | best overall response PR | 36% |
| N#Cc1ccc2c(c1)[C@H]1CCCN(C(=O)c3ccc4[nH]cnc4c3)[C@H]1C2 |  | human, plasma | 160 mg, day 15, 360 h | relative to: placebo and baseline | change in HOMA-IR | 31.6% |
| Cc1n[nH]c2ccc(-c3cc(OC[C@@H](N)Cc4ccccc4)cnc3-c3ccoc3)cc12 | kinase binding, competitor, MIB/MS competition, measured: PKH3 | Candida albicans cell lysate | 10 µM | relative to: DMSO | log2 fold change | -0.466 |
| COc1cc(-c2ccccc2)ncc1C(=O)Nc1ccc2c(=O)[nH]c(-c3ccc(C(C)(C)O)cc3)nc2c1 | RNA-seq GSEA, measured: FALLER_ENTEROCYTE_MOUSE | organoids, small intestinal, Apc Q1405X, mouse | dose not given, 3 days, knockout organoids | relative to: DMSO, direction not given | normalized enrichment score | 2.98 |
| C[C@H]1C[C@H]2CSC(N)=N[C@@]2(c2nc(NC(=O)c3ccc(OC(F)F)cn3)cs2)CO1 | measured: Aβx-40 | healthy adults, plasma | 125 mg once daily, day 4 | relative to: placebo | percent change from baseline | -72.3% |
| C=C1CC[C@H](OCCCNC(=O)CCOCCOCCOCCOCCOCCOCCOCCOCCOCCOCCOCCOCCOCCOCCOCCOCCOCCOCCOCCOCCOCCOCCOCCOCCOCCOCCOCCOCCOCCOCCOCCOCCOCCOCCOCCOCCNC(=O)CCN2C(=O)CC(SC[C@H](NC(=O)[C@H](CCCNC(=N)N)NC(=O)[C@@H]3CCCN3C(=O)[C@H](CCC(N)=O)NC(=O)[C@H](CC(C)C)NC(=O)[C@H](CCCCN)NC(=O)[C@H](C)NC(=O)[C@@H]3CCCN3C(=O)[C@@H]3CCCN3C(=O)[C@H](CCCCN)NC(=O)[C@H](CCCCN)NC(=O)[C@H](CO)NC(=O)[C@H](CCC(=O)O)NC(=O)[C@H](CCCCN)NC(=O)[C@H](CCCNC(=N)N)NC(=O)[C@H](CCC(N)=O)NC(=O)[C@H](CCC(N)=O)NC(=O)[C@@H](NC(=O)[C@H](CCCNC(=N)N)NC(=O)[C@H](CCC(N)=O)NC(=O)[C@H](Cc3c[nH]cn3)NC(=O)[C@H](CCC(=O)O)NC(=O)[C@@H]3CCCN3C(=O)[C@H](CO)NC(=O)[C@H](CC(C)C)NC(=O)[C@H](Cc3ccccc3)NC(=O)[C@H](CNC(=O)CCCCCCC)NC(=O)[C@H](CO)NC(=O)CN)C(C)C)C(=O)O)C2=O)C/C1=C/C=C1\CCC[C@]2(C)[C@@H]([C@H](C)CCCC(C)(C)O)CC[C@@H]12 (stereo partly drawn) | real-time RT-PCR, measured: Tnf and Ccl2 | mice, LLC tumour-bearing, tibialis anterior | daily or every other day | relative to: tumour-bearing vehicle | mRNA level | no effect |
| C[C@@H]1CCC[C@H](n2cnc(-c3cc(Cl)ccc3-n3cc(Cl)nn3)cc2=O)c2cc(ccn2)-c2c(cnn2C(F)F)NC1=O |  | dog plasma | IC2.5× aPTT, STA-PTT reagent |  | concentration for aPTT prolongation | 7.5 µM |
| NCC(=O)Nc1cncc(-c2nn3c(=O)cc(N4CCNCC4)nc3s2)c1 | ADP-induced platelet aggregation, light transmission aggregometry | human, stable CAD on aspirin, ex vivo platelets | subcutaneous, 0.04 mg/kg, 120 min post-dose, mean value, with: ADP 20 µM |  | inhibition | 1.65% |
